Results gathered from unrelated publications.
Protocols differ between the studies behind these lines. ± gives the spread as reported.
KLRK1 with MICA: NKG2-D type II integral membrane protein, with MICA (KLRK1, Homo sapiens, UniProt P26718)
UniProt O00411, sequence (whole entry, looked up): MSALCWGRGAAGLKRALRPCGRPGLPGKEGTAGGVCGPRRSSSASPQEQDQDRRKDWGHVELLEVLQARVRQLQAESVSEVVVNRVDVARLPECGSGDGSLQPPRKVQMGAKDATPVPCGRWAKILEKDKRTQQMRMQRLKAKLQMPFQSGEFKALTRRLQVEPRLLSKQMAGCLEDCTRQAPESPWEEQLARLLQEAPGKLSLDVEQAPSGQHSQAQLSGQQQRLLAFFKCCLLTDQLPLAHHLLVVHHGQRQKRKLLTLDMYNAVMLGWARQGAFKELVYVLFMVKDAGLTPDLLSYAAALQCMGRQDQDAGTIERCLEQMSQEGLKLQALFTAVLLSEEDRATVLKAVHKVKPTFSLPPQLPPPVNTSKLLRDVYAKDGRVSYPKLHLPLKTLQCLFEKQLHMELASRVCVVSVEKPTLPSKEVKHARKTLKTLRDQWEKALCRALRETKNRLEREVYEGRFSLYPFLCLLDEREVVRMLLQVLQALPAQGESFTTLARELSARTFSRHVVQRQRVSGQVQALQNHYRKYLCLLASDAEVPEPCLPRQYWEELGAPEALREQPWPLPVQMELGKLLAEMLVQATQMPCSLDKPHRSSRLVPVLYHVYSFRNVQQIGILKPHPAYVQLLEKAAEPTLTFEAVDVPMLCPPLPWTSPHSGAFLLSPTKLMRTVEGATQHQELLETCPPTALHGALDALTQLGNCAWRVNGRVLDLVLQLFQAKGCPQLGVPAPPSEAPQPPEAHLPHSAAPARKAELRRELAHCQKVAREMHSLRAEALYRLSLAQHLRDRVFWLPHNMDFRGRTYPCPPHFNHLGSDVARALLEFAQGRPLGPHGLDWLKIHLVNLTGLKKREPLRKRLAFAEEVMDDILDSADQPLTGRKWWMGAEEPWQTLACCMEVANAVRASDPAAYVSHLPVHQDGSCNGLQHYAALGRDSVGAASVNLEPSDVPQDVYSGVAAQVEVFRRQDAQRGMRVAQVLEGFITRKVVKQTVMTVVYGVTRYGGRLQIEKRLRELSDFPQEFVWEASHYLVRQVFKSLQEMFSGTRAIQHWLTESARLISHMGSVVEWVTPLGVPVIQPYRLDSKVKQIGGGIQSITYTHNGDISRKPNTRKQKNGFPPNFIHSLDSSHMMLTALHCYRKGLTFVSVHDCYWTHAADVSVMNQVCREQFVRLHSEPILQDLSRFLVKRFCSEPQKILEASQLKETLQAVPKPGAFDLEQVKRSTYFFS
UniProt P26718, sequence (whole entry, looked up): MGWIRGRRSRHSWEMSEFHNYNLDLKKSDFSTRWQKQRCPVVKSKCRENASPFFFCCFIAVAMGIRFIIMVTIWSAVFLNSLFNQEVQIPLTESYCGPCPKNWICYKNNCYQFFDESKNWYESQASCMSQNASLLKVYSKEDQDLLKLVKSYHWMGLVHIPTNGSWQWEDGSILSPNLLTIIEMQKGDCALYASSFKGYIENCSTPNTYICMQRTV
UniProt Q13451, sequence (whole entry, looked up): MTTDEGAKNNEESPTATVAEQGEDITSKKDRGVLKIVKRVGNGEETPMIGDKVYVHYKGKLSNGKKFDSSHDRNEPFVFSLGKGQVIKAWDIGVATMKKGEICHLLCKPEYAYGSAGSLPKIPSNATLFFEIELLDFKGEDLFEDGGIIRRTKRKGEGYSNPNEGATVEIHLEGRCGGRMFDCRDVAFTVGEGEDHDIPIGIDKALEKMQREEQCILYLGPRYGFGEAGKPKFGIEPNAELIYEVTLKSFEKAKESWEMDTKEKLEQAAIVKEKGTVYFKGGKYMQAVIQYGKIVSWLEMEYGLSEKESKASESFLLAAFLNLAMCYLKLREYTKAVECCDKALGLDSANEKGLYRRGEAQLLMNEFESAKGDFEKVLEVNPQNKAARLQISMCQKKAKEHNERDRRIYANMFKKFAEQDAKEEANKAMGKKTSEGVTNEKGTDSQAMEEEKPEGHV
UniProt P32300, sequence (whole entry, looked up): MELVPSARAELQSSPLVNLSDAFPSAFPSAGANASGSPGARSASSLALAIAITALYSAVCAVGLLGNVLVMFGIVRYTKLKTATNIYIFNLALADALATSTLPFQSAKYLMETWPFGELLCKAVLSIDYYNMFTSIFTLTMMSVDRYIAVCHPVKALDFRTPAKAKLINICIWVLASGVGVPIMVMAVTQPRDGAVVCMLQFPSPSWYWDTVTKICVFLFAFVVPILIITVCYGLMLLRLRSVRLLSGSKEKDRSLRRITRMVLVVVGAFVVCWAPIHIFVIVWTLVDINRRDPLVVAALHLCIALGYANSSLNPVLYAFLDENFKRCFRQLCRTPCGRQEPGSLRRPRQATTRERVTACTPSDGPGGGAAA
UniProt P61073, sequence (whole entry, looked up): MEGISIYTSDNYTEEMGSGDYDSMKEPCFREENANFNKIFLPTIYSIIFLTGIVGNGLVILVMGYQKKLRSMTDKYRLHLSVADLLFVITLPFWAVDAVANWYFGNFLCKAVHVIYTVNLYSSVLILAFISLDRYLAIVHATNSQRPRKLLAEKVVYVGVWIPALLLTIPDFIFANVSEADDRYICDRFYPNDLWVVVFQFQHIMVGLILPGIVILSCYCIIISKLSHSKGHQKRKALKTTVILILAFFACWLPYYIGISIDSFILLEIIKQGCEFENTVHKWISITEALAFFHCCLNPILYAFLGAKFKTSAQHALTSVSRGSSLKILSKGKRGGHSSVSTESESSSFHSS
UniProt P08913, sequence (whole entry, looked up): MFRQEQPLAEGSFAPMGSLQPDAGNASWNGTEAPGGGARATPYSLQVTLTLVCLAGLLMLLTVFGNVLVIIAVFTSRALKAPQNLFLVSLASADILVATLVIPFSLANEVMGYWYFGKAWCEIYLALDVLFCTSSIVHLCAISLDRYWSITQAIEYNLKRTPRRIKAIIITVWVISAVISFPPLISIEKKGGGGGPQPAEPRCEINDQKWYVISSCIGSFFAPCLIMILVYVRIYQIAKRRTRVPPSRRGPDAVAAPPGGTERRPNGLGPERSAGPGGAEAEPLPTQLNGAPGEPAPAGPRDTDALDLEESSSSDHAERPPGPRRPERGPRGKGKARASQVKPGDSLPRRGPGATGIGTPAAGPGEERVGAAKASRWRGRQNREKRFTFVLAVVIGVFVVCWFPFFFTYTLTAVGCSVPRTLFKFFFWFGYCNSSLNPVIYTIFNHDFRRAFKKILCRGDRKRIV
UniProt Q6TCG2, sequence (whole entry, looked up): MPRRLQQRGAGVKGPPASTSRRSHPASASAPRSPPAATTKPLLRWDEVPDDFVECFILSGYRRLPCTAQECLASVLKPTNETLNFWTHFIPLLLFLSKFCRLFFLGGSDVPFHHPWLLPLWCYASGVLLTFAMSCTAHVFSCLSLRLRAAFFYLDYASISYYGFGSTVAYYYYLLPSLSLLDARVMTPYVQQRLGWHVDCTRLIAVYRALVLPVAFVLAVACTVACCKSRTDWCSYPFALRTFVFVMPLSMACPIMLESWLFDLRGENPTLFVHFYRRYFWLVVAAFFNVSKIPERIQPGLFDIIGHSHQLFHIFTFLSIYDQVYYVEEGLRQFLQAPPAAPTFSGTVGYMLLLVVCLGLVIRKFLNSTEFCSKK
UniProt Q01827, sequence (whole entry, looked up): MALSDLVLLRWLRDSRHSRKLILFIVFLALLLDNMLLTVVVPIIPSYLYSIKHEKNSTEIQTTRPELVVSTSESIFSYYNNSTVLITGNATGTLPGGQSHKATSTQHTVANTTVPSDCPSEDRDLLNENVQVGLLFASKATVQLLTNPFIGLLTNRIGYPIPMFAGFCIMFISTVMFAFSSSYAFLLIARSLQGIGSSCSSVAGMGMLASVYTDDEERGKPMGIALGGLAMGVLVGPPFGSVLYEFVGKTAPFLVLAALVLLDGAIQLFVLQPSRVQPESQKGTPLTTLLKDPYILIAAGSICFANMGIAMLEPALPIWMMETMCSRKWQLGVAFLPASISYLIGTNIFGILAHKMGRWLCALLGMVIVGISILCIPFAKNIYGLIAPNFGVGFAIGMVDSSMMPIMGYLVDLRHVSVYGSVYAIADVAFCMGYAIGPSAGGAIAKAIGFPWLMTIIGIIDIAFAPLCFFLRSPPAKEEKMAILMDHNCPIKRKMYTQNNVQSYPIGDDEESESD
UniProt O66465, sequence (whole entry, looked up): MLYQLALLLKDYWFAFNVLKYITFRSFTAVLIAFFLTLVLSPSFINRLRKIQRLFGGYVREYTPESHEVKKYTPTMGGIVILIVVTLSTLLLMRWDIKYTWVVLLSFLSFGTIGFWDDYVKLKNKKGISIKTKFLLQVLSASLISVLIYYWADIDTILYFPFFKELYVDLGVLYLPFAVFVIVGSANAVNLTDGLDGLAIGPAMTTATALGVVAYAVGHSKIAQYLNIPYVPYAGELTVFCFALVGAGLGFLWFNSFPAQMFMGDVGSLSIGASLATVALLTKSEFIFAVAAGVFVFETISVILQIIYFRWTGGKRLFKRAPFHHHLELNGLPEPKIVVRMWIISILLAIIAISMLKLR

SMILES | target | test | system | setting | how to read | endpoint | result
CC[C@H](C)[C@H](NC(=O)[C@H](CCCNC(=N)N)NC(=O)[C@H](CO)NC(=O)[C@@H](NC(=O)[C@H](CC(=O)O)NC(=O)[C@H](CC(=O)O)NC(=O)CCCCCNC(=O)c1ccc2c(c1)C(=O)OC21c2ccc(O)cc2Oc2cc(O)ccc21)[C@@H](C)O)C(=O)N[C@@H](CCC(=O)O)C(=O)N[C@@H](CCC(=O)O)C(=O)N[C@H](C(=O)N[C@@H](CC(=O)O)C(=O)O)C(C)C | Peptidyl-prolyl cis-trans isomerase FKBP5 (FKBP5, Homo sapiens, UniProt Q13451) | binding, fluorescence polarization | – | pH 7.4, full-length protein | baseline: wild-type Hsp90α tracer | affinity decrease | ≥ 12 fold
Cc1cc(-c2ccc3c(c2)CCC3O)cc(C)c1O (stereo not shown) | estrogen receptor alpha ligand-binding domain, human | TR-FRET | – | concentration not given | – | SRC3 coactivator binding | no binding
CN(C)C(=O)[C@@H](NC(=O)c1cnccc1-c1ccc(C(F)(F)F)cc1)c1cccc(C(F)(F)F)c1 | KLRK1 with MICA | ligand binding, inhibitor, TR-FRET | HEK293 expressing NKG2D and DAP10 | together with: MICA-Alexa647 | baseline: positive control | maximum inhibition | 100%
CC(=O)NC(Cc1ccc(Br)c(Cl)c1)C(=O)N[C@@H](C)C(=O)N1CCC[C@H]1C(=O)N1CCC[C@H]1C(=O)N[C@@H](CCC(=O)O)C(=O)N[C@@H](Cc1c[nH]cn1)C(=O)N[C@@H](CO)C(=O)N[C@H](C(=O)N[C@@H](C)C(N)=O)[C@@H](C)OP(=O)(O)O (stereo partly shown) | Dual specificity tyrosine-phosphorylation-regulated kinase 1B (DYRK1B, Homo sapiens, UniProt Q9Y463) | – | – | 10 µM | – | inhibition | 6.83 ± 0.25%
c1ccc(CCCC2CCC(CCCc3ccccc3)N2)cc1 (stereo not shown) | Synaptic vesicular amine transporter (Slc18a2, Rattus norvegicus, UniProt Q01827) | binding | rat whole brain vesicles | together with: [3H]dihydrotetrabenazine | – | maximal inhibition | 100%
O=[N+]([O-])c1ccc(OP(=O)(O)O)cc1 | Alkaline phosphatase PafA (pafA, Elizabethkingia meningoseptica, UniProt Q9KJX5, K162A) | substrate | – | pH 8.0 | – | kcat | 0.03 s^–1
NCC1OC(OC(CO)C2CC(O)C(n3ccc(=O)[nH]c3=O)O2)C(O)C1O (stereo not shown) | Phospho-N-acetylmuramoyl-pentapeptide-transferase (mraY, Aquifex aeolicus, UniProt O66465) | isothermal titration calorimetry | – | concentration not given, wild type, together with: Mg2+ | – | binding entropy | -19.9 ± 4.8 cal/mol/K
COP(=O)(O)Oc1ccc([N+](=O)[O-])cc1 | Alkaline phosphatase PafA (pafA, Elizabethkingia meningoseptica, UniProt Q9KJX5, N100A) | – | Chryseobacterium meningosepticum | pH 8.0 | baseline: wild type over mutant kcat/KM | relative catalytic efficiency | 150
CN(C)C(=O)C(NC(=O)c1ccccc1-c1ccc(C(F)(F)F)cc1)c1cccc(C(F)(F)F)c1 (stereo not shown) | KLRK1 with MICA | cellular TR-FRET binding | – | pIC50 minus ChromLogD | – | LLE | 2.2 ± 0.7 , 1.7
N=C(N)NCCC[C@H](NC(=O)[C@H](CCCNC(=N)N)NC(=O)[C@H](CCCNC(=N)N)NC(=O)[C@@H]1CCCN1C(=O)CNCCCN(CC[C@H](N)C(=O)O)C[C@H]1O[C@@H](n2cnc3c(N)ncnc32)[C@H](O)[C@@H]1O)C(=O)N[C@@H](CO)C(=O)O | N-terminal Xaa-Pro-Lys N-methyltransferase 1 (Homo sapiens, UniProt Q9BV86) | enzyme activity, inhibitor, MALDI-MS | – | 5 µM, 20 min, together with: RCC1-10 peptide | – | trimethylation | inhibited
Cc1cc(Oc2nc(N3CC[C@@H](c4ccncc4)C3)ncc2F)[nH]n1 | PPAT (Homo sapiens, UniProt Q06203) | – | – | – | baseline: human PPAT over M. tuberculosis PurF | selectivity ratio | > 10000
O=C(N[C@H]1CCOC1=O)c1cccc(-n2cc(C3CCCC3)nn2)c1 | Transcriptional activator protein LasR (lasR, Pseudomonas aeruginosa, UniProt P25084) | reporter gene, agonist | Escherichia coli DH5α pJN105L/pSC11 | 10 µM | baseline: OdDHL 100 µM | activation | 0%
CCN(Cc1ccccc1)C(=O)CCc1nc(CN2CCN(C(=O)Cc3ccc(OC)c(OC)c3)CC2)no1 | Sodium channel protein type 9 subunit alpha (SCN9A, Homo sapiens, UniProt Q15858) | whole-cell patch clamp | HEK stable | 300 nM | – | V1/2 of activation | -40 ± 2.06 mV
C[C@@]1(O)CC[C@H]2[C@H](CC[C@@H]3[C@@H]2CC[C@]2(C)[C@@H](C(=O)Cn4cccn4)CC[C@@H]32)C1 | Membrane progesterone receptor epsilon (Paqr9, Mus musculus, UniProt Q6TCG2) | pPKA/PKA immunoblot | MDA-MB-231 expressing Paqr9-GFP | 100 nM, 20 min | baseline: control | PKA activation | 93.7 ± 10.6%
CC(C)C[C@@H](N)C(=O)NCC(=O)N[C@H](C)C(=O)N[C@H](CO)C(=O)N[C@H](Cc1c[nH]c2ccccc12)C(=O)N[C@H](Cc1c[nH]cn1)C(=O)N[C@H](CCCNC(=N)N)C(=O)N1CCC[C@@H]1C(=O)N[C@H](CC(=O)O)C(=O)N[C@H](CCCCN)C(=O)N[C@H](CS)C(=O)N[C@H](CS)C(=O)N[C@H](CC(C)C)C(=O)NCC(=O)N[C@H](Cc1ccc(O)cc1)C(=O)N[C@H](CCC(N)=O)C(=O)N[C@H](CCCCN)C(=O)N[C@H](CCCNC(=N)N)C(=O)N1CCC[C@@H]1C(=O)N[C@H](CC(C)C)C(=O)N1CCC[C@@H]1C(=O)NCCCCCC(=O)N[C@@H](CCCCNC(=S)Nc1ccc2c(c1)C(=O)OC21c2ccc(O)cc2Oc2cc(O)ccc21)C(N)=O | C-X-C chemokine receptor type 4 (CXCR4, Homo sapiens, UniProt P61073) | binding | CHO cells expressing CXCR4 | – | – | saturating concentration | 800 nM
N[C@@H](Cc1ccc(C(=O)NCCc2ccc3ccccc3c2)cc1)C(=O)N1Cc2ccccc2C[C@H]1C(=O)N[C@@H](Cc1ccccc1)C(=O)N[C@@H](Cc1ccccc1)C(=O)O | Delta-type opioid receptor (Oprd1, Mus musculus, UniProt P32300) | smooth muscle contraction, agonist | mouse vas deferens | – | baseline: DPDPE | relative potency | 2 to 4 fold
CC[C@H](C)[C@H](NC(=O)[C@H](Cc1c[nH]cn1)NC(=O)[C@H](CCCCNC(=O)[C@@H](NC(=O)[C@H](CCCCN)NC(=O)[C@H](Cc1ccccc1)NC(=O)[C@H](CCCCNC(=O)[C@H](CC(C)C)NC(=O)[C@@H]1CCCN1C(=O)[C@H](CCCCN)NC(=O)CCS[C@@H]1O[C@H](CO)[C@H](O)[C@H](O)[C@H]1O)NC(=O)[C@H](CC(C)C)NC(=O)[C@@H]1CCCN1C(=O)[C@H](CCCCN)NC(=O)CCS[C@@H]1O[C@H](CO)[C@H](O)[C@H](O)[C@H]1O)[C@@H](C)CC)NC(=O)[C@@H](NC(=O)[C@H](CCCCN)NC(=O)[C@H](Cc1ccccc1)NC(=O)[C@H](CCCCNC(=O)[C@H](CC(C)C)NC(=O)[C@@H]1CCCN1C(=O)[C@H](CCCCN)NC(=O)CCS[C@@H]1O[C@H](CO)[C@H](O)[C@H](O)[C@H]1O)NC(=O)[C@H](CC(C)C)NC(=O)[C@@H]1CCCN1C(=O)[C@H](CCCCN)NC(=O)CCS[C@@H]1O[C@H](CO)[C@H](O)[C@H](O)[C@H]1O)[C@@H](C)CC)C(N)=O | PA-I galactophilic lectin (lecA, Pseudomonas aeruginosa, UniProt Q05097) | ITC | – | concentration not given, pH 7.5, 25 °C | – | binding stoichiometry | 4.3 ± 0.2
O=C(O)c1ccccc1-c1c2ccc(=O)c([As]3SCCS3)c-2oc2c([As]3SCCS3)c(O)ccc12 | Tyrosine-protein phosphatase non-receptor type 11 (Ptpn11, Mus musculus, UniProt P35235) | – | – | 225 nM, catalytic domain, together with: pNPP | – | kcat | 0.6 ± 0.066 s⁻¹
O=C(CCCC[C@@H]1SC[C@@H]2NC(=O)N[C@@H]21)NCCCCCCCCN1[C@H]2[C@H](O)[C@@H](O)[C@H](O[C@@H]3OC[C@@H](O)[C@H](O)[C@H]3O)C[C@H]21 (stereo partly shown) | endo-1,4-beta-xylanase (Aspergillus aculeatus, UniProt A0A1L9WG58) | covalent inhibitor | – | pH 5.0, together with: 4MU-β-D-xylobioside | – | kinact | 0.000183 s⁻¹
C[C@H](NC(=O)[C@H](Cc1ccccc1)NC(=O)c1ccc(Br)cc1)C(=O)N[C@H](C(=O)N[C@@H](CCCC[N+](C)(C)C)C(=O)N[C@@H](CO)C(N)=O)C1CCCC1 | E3 SUMO-protein ligase CBX4 (Homo sapiens, UniProt O00257) | competitive fluorescence polarization | – | – | baseline: Cbx7 over E3 SUMO-protein ligase CBX4 | selectivity ratio | 3.9 fold
COC(=O)C1C(OC(c2ccc(Cl)cc2)c2ccc(Cl)cc2)CC2CCC1N2C (single isomer, unassigned) | Alpha-2A adrenergic receptor (ADRA2A, Homo sapiens, UniProt P08913) | binding, radioligand displacement | – | inactive if below 75% at 10000 nM, together with: [3H]MK-912 | – | Ki | inactive
N#C[C@@]1(c2ccc3c(N)ncnn23)O[C@H](COP(=O)(O)OP(=O)(O)OP(=O)(O)O)[C@@H](O)[C@H]1O | DNA-directed RNA polymerase, mitochondrial (POLRMT, Homo sapiens, UniProt O00411) | substrate | – | 500 µM | baseline: natural NTP | single nucleotide incorporation rate | 5.8%

Some of these lines once more:
SMILES | target | test | system | setting | how to read | endpoint | result
CC[C@H](C)[C@H](NC(=O)[C@H](Cc1c[nH]cn1)NC(=O)[C@H](CCCCNC(=O)[C@@H](NC(=O)[C@H](CCCCN)NC(=O)[C@H](Cc1ccccc1)NC(=O)[C@H](CCCCNC(=O)[C@H](CC(C)C)NC(=O)[C@@H]1CCCN1C(=O)[C@H](CCCCN)NC(=O)CCS[C@@H]1O[C@H](CO)[C@H](O)[C@H](O)[C@H]1O)NC(=O)[C@H](CC(C)C)NC(=O)[C@@H]1CCCN1C(=O)[C@H](CCCCN)NC(=O)CCS[C@@H]1O[C@H](CO)[C@H](O)[C@H](O)[C@H]1O)[C@@H](C)CC)NC(=O)[C@@H](NC(=O)[C@H](CCCCN)NC(=O)[C@H](Cc1ccccc1)NC(=O)[C@H](CCCCNC(=O)[C@H](CC(C)C)NC(=O)[C@@H]1CCCN1C(=O)[C@H](CCCCN)NC(=O)CCS[C@@H]1O[C@H](CO)[C@H](O)[C@H](O)[C@H]1O)NC(=O)[C@H](CC(C)C)NC(=O)[C@@H]1CCCN1C(=O)[C@H](CCCCN)NC(=O)CCS[C@@H]1O[C@H](CO)[C@H](O)[C@H](O)[C@H]1O)[C@@H](C)CC)C(N)=O | PA-I galactophilic lectin (lecA, Pseudomonas aeruginosa, UniProt Q05097) | ITC | – | concentration not given, pH 7.5, 25 °C | – | binding stoichiometry | 4.3 ± 0.2
COP(=O)(O)Oc1ccc([N+](=O)[O-])cc1 | Alkaline phosphatase PafA (pafA, Elizabethkingia meningoseptica, UniProt Q9KJX5, N100A) | – | Chryseobacterium meningosepticum | pH 8.0 | baseline: wild type over mutant kcat/KM | relative catalytic efficiency | 150
